Measured values gathered from unrelated publications.
A part holds a random share of what one study measured.
Sequence of UniProt Q8IYT8 (whole entry, looked up): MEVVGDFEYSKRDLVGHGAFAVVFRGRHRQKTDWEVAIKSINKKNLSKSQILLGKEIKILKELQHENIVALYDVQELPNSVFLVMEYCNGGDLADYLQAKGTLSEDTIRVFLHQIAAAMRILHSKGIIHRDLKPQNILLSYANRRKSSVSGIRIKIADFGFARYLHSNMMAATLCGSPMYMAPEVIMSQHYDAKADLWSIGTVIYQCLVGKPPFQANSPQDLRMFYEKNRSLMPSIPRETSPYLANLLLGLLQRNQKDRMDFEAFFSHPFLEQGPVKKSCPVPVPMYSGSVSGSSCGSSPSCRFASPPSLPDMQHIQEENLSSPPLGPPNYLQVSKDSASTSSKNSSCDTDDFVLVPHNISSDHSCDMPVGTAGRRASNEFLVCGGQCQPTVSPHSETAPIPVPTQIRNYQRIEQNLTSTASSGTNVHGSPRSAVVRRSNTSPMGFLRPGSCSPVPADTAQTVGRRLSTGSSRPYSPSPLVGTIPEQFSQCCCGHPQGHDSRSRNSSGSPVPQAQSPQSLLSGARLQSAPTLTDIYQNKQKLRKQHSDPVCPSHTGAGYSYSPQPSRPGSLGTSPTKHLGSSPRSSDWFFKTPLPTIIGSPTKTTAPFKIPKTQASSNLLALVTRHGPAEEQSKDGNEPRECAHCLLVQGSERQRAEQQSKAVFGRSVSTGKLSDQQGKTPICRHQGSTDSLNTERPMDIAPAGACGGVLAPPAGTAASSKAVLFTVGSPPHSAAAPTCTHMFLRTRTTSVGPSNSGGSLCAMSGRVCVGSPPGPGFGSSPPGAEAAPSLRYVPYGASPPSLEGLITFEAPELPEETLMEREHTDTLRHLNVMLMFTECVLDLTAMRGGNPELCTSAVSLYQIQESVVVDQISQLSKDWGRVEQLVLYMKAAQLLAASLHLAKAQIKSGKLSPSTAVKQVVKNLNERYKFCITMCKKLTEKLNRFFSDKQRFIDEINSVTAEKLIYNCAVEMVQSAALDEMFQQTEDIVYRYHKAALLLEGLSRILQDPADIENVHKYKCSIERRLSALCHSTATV
Sequence of UniProt Q9UHD2 (whole entry, looked up): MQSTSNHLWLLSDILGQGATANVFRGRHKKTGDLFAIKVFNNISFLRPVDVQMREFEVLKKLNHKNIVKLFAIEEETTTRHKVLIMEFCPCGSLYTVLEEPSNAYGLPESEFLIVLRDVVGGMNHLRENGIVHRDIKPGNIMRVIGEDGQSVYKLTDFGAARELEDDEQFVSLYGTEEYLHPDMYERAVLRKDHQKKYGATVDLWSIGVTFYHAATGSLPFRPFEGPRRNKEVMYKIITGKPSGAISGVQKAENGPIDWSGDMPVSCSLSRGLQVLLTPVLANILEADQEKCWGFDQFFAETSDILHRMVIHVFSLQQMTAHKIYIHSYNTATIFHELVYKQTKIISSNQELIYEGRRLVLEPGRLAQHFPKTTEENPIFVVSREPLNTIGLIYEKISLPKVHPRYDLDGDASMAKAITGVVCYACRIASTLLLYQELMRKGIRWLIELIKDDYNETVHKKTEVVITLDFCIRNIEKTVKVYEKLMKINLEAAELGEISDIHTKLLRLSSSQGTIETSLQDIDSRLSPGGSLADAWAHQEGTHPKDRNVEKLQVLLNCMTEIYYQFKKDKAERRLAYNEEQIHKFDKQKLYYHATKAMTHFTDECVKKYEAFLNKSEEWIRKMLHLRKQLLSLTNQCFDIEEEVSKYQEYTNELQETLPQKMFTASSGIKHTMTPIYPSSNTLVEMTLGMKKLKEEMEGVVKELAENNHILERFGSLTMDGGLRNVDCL
Sequence of UniProt Q99683 (whole entry, looked up): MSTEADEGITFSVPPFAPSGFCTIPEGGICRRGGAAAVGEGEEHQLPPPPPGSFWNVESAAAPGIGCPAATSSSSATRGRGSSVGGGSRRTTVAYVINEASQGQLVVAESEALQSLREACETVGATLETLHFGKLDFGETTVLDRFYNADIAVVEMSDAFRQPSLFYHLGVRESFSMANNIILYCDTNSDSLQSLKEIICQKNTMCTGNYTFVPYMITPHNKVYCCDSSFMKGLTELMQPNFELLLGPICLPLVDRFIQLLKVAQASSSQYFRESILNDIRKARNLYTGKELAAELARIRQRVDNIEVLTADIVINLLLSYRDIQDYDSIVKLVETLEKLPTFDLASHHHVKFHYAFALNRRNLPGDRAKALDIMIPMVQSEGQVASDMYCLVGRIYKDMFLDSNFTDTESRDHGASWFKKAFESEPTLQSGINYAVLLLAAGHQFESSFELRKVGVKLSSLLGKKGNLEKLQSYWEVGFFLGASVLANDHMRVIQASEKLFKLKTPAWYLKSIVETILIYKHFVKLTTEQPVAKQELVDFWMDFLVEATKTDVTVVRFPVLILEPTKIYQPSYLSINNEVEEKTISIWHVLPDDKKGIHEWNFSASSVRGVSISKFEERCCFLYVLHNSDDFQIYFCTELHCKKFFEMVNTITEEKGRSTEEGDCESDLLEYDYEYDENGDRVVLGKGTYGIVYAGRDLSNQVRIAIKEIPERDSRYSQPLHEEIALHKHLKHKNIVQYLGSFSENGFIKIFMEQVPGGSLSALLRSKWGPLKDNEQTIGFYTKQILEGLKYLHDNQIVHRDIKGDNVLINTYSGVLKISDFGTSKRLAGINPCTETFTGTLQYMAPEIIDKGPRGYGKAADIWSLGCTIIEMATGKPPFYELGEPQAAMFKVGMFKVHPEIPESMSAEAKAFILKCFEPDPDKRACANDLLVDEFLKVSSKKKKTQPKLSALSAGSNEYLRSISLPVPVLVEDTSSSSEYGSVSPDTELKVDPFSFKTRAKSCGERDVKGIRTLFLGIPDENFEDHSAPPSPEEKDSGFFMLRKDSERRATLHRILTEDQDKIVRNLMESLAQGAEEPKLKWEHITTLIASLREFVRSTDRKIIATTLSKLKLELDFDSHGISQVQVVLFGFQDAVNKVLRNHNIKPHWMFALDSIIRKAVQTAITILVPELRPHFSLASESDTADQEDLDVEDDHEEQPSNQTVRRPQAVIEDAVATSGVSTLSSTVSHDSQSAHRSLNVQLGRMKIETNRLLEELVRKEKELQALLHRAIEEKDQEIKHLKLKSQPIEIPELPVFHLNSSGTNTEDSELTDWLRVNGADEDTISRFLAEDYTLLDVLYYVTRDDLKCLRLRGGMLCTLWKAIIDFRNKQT
Sequence of UniProt Q96PY6 (whole entry, looked up): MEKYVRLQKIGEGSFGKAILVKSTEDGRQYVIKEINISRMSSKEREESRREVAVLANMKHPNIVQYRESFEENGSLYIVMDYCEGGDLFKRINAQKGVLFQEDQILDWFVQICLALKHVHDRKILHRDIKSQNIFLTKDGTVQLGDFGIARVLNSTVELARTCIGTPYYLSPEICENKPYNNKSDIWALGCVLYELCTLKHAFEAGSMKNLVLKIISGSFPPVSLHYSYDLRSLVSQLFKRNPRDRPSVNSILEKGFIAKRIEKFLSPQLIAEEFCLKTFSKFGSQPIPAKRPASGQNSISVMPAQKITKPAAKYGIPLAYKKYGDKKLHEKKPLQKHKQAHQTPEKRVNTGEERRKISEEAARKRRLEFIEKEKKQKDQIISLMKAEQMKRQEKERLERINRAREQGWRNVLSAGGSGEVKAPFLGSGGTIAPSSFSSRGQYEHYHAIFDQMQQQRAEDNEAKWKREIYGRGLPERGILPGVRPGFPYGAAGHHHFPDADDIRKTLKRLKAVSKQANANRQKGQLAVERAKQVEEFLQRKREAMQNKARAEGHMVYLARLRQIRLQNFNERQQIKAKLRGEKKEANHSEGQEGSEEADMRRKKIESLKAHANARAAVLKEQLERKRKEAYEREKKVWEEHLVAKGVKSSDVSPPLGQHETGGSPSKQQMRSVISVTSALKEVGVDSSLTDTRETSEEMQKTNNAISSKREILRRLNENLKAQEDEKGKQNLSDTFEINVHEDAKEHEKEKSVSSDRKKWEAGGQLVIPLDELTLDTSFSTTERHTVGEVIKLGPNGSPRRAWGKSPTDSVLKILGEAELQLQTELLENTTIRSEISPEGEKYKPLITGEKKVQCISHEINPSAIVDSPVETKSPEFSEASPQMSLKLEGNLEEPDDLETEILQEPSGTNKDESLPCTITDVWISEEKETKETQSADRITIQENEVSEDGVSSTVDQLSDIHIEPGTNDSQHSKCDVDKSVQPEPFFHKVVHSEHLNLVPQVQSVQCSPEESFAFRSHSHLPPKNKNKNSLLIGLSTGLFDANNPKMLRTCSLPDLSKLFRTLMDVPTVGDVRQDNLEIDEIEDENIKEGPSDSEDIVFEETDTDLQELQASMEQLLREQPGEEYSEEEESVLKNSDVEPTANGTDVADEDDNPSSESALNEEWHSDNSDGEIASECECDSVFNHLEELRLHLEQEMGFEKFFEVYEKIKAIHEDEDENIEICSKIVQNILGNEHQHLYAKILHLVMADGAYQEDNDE
Sequence of UniProt Q9Y6M4 (whole entry, looked up): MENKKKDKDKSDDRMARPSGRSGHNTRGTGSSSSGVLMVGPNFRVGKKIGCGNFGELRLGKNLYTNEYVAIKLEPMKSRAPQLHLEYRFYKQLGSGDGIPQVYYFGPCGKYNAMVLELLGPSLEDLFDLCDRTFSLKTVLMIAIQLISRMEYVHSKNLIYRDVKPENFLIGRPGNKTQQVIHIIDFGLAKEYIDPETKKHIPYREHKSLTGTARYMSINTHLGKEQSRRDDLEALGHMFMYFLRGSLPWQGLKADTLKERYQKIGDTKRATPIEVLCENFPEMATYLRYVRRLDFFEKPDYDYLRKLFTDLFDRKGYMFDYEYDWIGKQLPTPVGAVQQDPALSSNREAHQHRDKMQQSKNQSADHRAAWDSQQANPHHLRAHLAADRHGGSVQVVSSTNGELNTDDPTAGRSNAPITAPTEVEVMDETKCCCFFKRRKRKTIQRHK

Set 1
Cell line: A-375
Concentration: 100 µM
Time: 18 h
Structure (SMILES)	viability
NC(=O)C[S@@+]([O-])C(c1ccccc1)c1ccccc1	85%
C[C@]12CCC(=O)C=C1CC[C@@H]1[C@@H]2CC[C@@]2(C)[C@H]1CC[C@]2(C)O	66.8%
Oc1cccc2cccnc12	73.1%
COc1ccc(CN2CCNCC2)c(OC)c1OC	90.8%
C[C@]12CC[C@H]3[C@@H](CC[C@@]45O[C@@H]4C(O)=C(C#N)C[C@]35C)[C@@H]1CC[C@@H]2O	68.2%
COc1ccc(C(CN(C)C)C2(O)CCCCC2)cc1 (stereo not drawn)	84%

Set 2
Target: vesicular stomatitis virus glycoprotein
Effect on: viral entry
Technique: VSVΔG-G pseudovirus
Concentration: 10 µM
SMILES	inhibition [%]
N#Cc1c(Cl)c(Cl)c(Cl)c(Cl)c1C#N	26
CC(C)(C)N1COc2c(cc(Cl)c3cccnc23)C1	23
CCc1ccc2nc(C)c(CN3CCCC3)c(O)c2c1	15
COc1cc(C(=O)N2c3ccccc3C=Cc3ccccc32)cc(OC)c1OC	34
Oc1ccc(CN2CCN(c3cccc(C(F)(F)F)c3)CC2)c2cccnc12	22
CC(c1ccc(-c2ccc3sc(N)nc3c2)cc1)N1CCOCC1 (stereo not drawn)	16
CS(=O)(=O)c1ncc(Cl)c(C(=O)N2CCN(C(c3ccccc3)c3ccccc3)CC2)n1	29
Cc1ccccc1NC(=O)N1c2ccccc2CC1c1noc(C2CCOCC2)n1 (stereo not drawn)	-11

Set 3
Compound: CCn1cnc2c(Nc3cccc(Cl)c3)nc(N[C@H]3CCCC[C@H]3N)nc21
Effect on: enzyme activity
Action: inhibitor
Concentration: 0.5 µM
Relative to: control
target	remaining activity [%]
Mitogen-activated protein kinase kinase kinase 5 (MAP3K5, Homo sapiens, UniProt Q99683)	103
Serine/threonine-protein kinase ULK2 (ULK2, Homo sapiens, UniProt Q8IYT8)	94.2
Serine/threonine-protein kinase TBK1 (TBK1, Homo sapiens, UniProt Q9UHD2)	92.8
Casein kinase I isoform gamma-3 (CSNK1G3, Homo sapiens, UniProt Q9Y6M4)	45.9
Serine/threonine-protein kinase A-Raf (ARAF, Homo sapiens, UniProt P10398)	116
Serine/threonine-protein kinase Nek1 (NEK1, Homo sapiens, UniProt Q96PY6)	95

Further values, each from its own experiment
Compound	target	effect on	action	concentration	measurement	value
CC[C@H]1CN2CC[C@@]3(C(=O)Nc4ccccc43)[C@@H]2C[C@@H]1/C(=C\OC)C(=O)OC	Calcium/calmodulin-dependent protein kinase type II subunit alpha (CAMK2A, Homo sapiens, UniProt Q9UQM7)	enzyme activity	inhibitor	10 µM	inhibition	-6%

A few entries again (set 2):
SMILES	inhibition [%]
CC(C)(C)N1COc2c(cc(Cl)c3cccnc23)C1	23
Cc1ccccc1NC(=O)N1c2ccccc2CC1c1noc(C2CCOCC2)n1 (stereo not drawn)	-11
CC(c1ccc(-c2ccc3sc(N)nc3c2)cc1)N1CCOCC1 (stereo not drawn)	16
